{"data": "Published values gathered from unrelated publications", "note": "Compare with care: the assays were run in different laboratories. Several values in a cell are separate wells, animals, samples, runs or records. Numbers after ± are the reported error.", "sequence of UniProt Q9NPD5 (whole entry, looked up)": "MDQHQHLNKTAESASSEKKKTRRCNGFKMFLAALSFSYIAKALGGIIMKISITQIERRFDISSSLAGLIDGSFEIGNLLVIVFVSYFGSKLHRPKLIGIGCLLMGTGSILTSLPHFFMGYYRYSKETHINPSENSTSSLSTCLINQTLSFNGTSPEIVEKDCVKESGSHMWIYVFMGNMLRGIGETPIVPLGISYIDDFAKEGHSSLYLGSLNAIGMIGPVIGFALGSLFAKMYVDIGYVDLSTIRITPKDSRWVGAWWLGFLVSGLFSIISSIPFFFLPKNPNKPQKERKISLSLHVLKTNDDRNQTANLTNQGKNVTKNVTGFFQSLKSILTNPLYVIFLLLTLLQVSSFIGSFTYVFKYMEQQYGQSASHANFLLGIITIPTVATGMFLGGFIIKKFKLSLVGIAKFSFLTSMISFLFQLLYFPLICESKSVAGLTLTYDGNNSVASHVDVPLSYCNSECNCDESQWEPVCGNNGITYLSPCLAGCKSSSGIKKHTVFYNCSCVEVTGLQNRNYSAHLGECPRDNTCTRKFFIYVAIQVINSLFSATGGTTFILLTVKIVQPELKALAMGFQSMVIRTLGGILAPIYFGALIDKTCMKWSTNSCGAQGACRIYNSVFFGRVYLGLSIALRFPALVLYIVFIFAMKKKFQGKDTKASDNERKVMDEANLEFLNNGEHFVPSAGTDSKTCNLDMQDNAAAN"}
{"Compound": "O=C(C=Cc1ccc(O)c(O)c1)OC1CC(O)(C(=O)O)CC(OC(=O)C=Cc2ccc(O)c(O)c2)C1O (stereo not drawn)", "target or system": "Vero E6", "setting": "50 µM", "measurement": "cytotoxicity", "result": "0%"}
{"Compound": "COc1cc2c(cc1NC(=O)c1cncn1C)C[C@H]1[C@H]3CCCC[C@@]23CCN1C", "system": "C57BL/6 mice, plasma", "setting": "oral, 50 µg/g, 60 min", "measurement": "plasma concentration", "result": "9810 ng/mL and 13400 ng/mL and 9530 ng/mL and 11200 ng/mL"}
{"Compound": "COc1ccc2c3c1O[C@H]1[C@@H](O)CC[C@H]4[C@@H](C2)N(CCc2ccccc2)CC[C@@]341", "assay": "pH-potentiometric titration", "how to read": "reference: O-methyl derivative", "measurement": "Δlog K, saturation effect", "result": "0.54 log units"}
{"Compound": "Cc1ccc(OCC2CN(C)C2)cc1C(=O)N[C@H](C)c1cc(-c2cnn(C)c2)nc2ccccc12", "target or system": "Vero E6", "setting": "250 µM", "measurement": "viability", "result": "0.536% and 1.43% and 0.357%"}
{"Compound": "Cc1nc2cccc(OCC(C)(C)C(=O)NC(C)C)c2c(N)c1C(=O)[O-].[Na+]", "target or system": "Salmonella typhimurium", "assay": "Ames preincubation", "system": "TA98", "setting": "0.80 mg/plate, together with: with rat liver S9", "measurement": "revertant colonies", "result": "40 ± 3 colonies/plate"}
{"Compound": "O=C1NC2(CC2)COc2ncc(F)cc2[C@H]2COCCN2c2ccn3ncc1c3n2", "system": "Sprague-Dawley rat, female, uterus", "setting": "oral, 20 mg/kg/day, 4 weeks dosing, end of recovery", "measurement": "organ-to-body weight ratio", "result": "0.229 ± 0.045%"}
{"Compound": "Cc1ccc(OC2CN(C)C2)cc1C(=O)N[C@H](C)c1cc(-c2cnn(C)c2)nc2ccccc12", "target or system": "Vero E6", "setting": "125 µM", "measurement": "viability", "result": "2.97% and 1.98% and 3.63%"}
{"Compound": "CC[C@H](C)[C@H](NC(=O)[C@H](CCCCN)NC(=O)[C@H](CCCCN)NC(=O)[C@H](Cc1ccccc1)NC(=O)[C@H](Cc1ccccc1)NC(=O)[C@H](CCCCN)NC(=O)[C@H](CCCCN)NC(=O)[C@H](Cc1ccccc1)NC(=O)[C@H](CCCNC(=N)N)NC(=O)[C@@H](N)CCCCN)C(=O)N[C@@H](CCCCN)C(=O)N[C@@H](CCCCN)C(=O)N[C@@H](CO)C(=O)N[C@H](C(=O)N[C@@H](CCCCN)C(=O)N[C@@H](CCCCN)C(=O)N[C@@H](CCCNC(=N)N)C(=O)N[C@H](C(=O)N[C@@H](CCCCN)C(=O)N[C@@H](CCCCN)C(=O)N[C@@H](CC(C)C)C(=O)N[C@@H](Cc1ccccc1)C(=O)N[C@@H](CCCCN)C(=O)N[C@@H](CCCCN)C(=O)N1CCC[C@H]1C(=O)N[C@@H](CCCNC(=N)N)C(=O)N[C@H](C(=O)N[C@H](C(=O)N1CCC[C@H]1C(=O)N[C@H](C(=O)N[C@@H](CO)C(=O)N[C@H](C(=O)N1CCC[C@H]1C(=O)N[C@@H](Cc1ccccc1)C(=O)O)[C@@H](C)CC)[C@@H](C)CC)[C@@H](C)CC)C(C)C)C(C)C)C(C)C", "target or system": "Pseudomonas aeruginosa", "system": "P1", "setting": "after heating at 90 °C", "measurement": "MIC", "result": "4 µg/mL"}
{"Compound": "CCn1cc(-c2cc([C@@H](C)NC(=O)c3cc(OCCN(C)C)ccc3C)c3ccccc3n2)c(C(F)(F)F)n1", "target or system": "Vero E6", "setting": "3.906 µM", "measurement": "viability", "result": "107% and 108%"}
{"Compound": "CC(=O)NCCCC[C@@H]1NC(=O)[C@H](Cc2c[nH]c3c(C)cccc23)NC(=O)[C@H]([C@@H](C)O)NC(=O)[C@H](CC(N)=O)NC(=O)[C@@H](NC(C)=O)C(C)(C)SSC(C)(C)[C@@H](C(=O)N[C@@H](Cc2ccc(OCCN)cc2)C(=O)N[C@@H](Cc2ccc3ccccc3c2)C(=O)NC2(C(=O)N[C@@H](CCC(=O)O)C(=O)N[C@@H](CC(N)=O)C(=O)N[C@@H](Cc3cccnc3)C(=O)N(C)CC(N)=O)CCOCC2)NC1=O", "target or system": "SLCO1B3 (Homo sapiens, UniProt Q9NPD5)", "assay": "substrate", "system": "HEK293 overexpressing transporter", "setting": "5 µM, 30 min, together with: 25 µM rifampicin", "measurement": "uptake rate", "result": "0.063 ± 0.0038 pmol/mg/min"}
{"Compound": "CCn1ccc(-c2cc([C@@H](C)NC(=O)c3cc(OC[C@@H]4CCCN4C)ccc3C)c3ccccc3n2)n1", "target or system": "Vero E6", "setting": "500 µM", "measurement": "viability", "result": "2.39% and 2.15%"}
{"Compound": "Nc1nc(Nc2ccc(Cl)c(Cl)c2)nn1S(=O)(=O)c1ccc2ccccc2c1", "target or system": "Syrian hamster cells", "measurement": "CC50", "result": "10 µM"}
{"note": "For quick reference, copied from above:"}
{"Compound": "Cc1nc2cccc(OCC(C)(C)C(=O)NC(C)C)c2c(N)c1C(=O)[O-].[Na+]", "target or system": "Salmonella typhimurium", "assay": "Ames preincubation", "system": "TA98", "setting": "0.80 mg/plate, together with: with rat liver S9", "measurement": "revertant colonies", "result": "40 ± 3 colonies/plate"}
{"Compound": "COc1cc2c(cc1NC(=O)c1cncn1C)C[C@H]1[C@H]3CCCC[C@@]23CCN1C", "system": "C57BL/6 mice, plasma", "setting": "oral, 50 µg/g, 60 min", "measurement": "plasma concentration", "result": "9810 ng/mL and 13400 ng/mL and 9530 ng/mL and 11200 ng/mL"}
